Experimental data pooled from the literature.
Numbered parts are unrelated; each lists some results of a single study.

Sample 1
Target: Interferon regulatory factor 5, full length, phosphomimetic (IRF5, Homo sapiens, UniProt Q13568-2, residues 1-514, K96S/S451D/S453D/S456D/S462D)
Technique: protein-binding microarray
Molecule type: double-stranded DNA, one strand shown
Medium: in vitro
Tested at: 250 nM
Setting: 60-bp whole probe
Added: salmon DNA 0.4 mg/ml
Baseline: random background probes
Reading: higher = stronger binding
Endpoint: log fluorescence
All sequences stand within: GCCTAGCAC … GTGCTAGGTCTTGATTCGCTTGACGCTGCTG
AGTTGTTTTAAATTCTAATT: 1.02 z-score
GACGATATCCTTTTCCTGAC: 0.669 z-score
GACTCTTTCTGTCAGTTTTG: 5.27 z-score
TTAGGTCTCCGTATCCTTTA: -0.141 z-score
TTAGGTATCGGCCTGGGTTA: 2.81 z-score
TTAGGACTGGGTTTCTGTTA: 2.06 z-score
TCACATTTTCATTTTGTACT: 2.16 z-score
GACGGTTTCGGATCCGGGAC: 5.11 z-score
GGAGTTTTCTCATTCGTCAT: 0.766 z-score

Sample 2
Target: RNA binding protein fox-1 homolog 2, RRM domain, GST-SBP tag (RBFOX2, Homo sapiens, UniProt O43251-10, residues 100-194)
Technique: RNA Bind-n-Seq
Molecule type: RNA
Medium: in vitro
Tested at: 365 nM
Setting: natural RNA segment, single round, ends assumed
Baseline: no-protein control
Reading: higher = stronger binding
Endpoint: RBNS enrichment (R)
All sequences stand within: GGGAGUUCUACAGUCCGACGAUC … UGGAAUUCUCGGGUGCCAA
Construct (chain): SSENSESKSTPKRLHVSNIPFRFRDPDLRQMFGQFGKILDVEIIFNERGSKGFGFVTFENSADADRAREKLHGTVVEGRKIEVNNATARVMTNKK
CUUCUGGGGUCGUCUGUCCUAUCCGUGGAUUGUAUAUACUCUUCUCUGUUAAGGAGUUUUUCCCAAGAAGAAAAGUAUUUAAAAGAAAUACCAGUGAGUGCCUUAAAGUU: 0.636
UGCACUUUUGUGGGUCGCAAGGUGAUACAUACGUGUAUUACUUGGUCACUGGAUGCAGAAGUACCCAUUCAUCACACCUGCCCCAUAGCCCCCACUCUGCUGUACUGAUA: 0.231
UUCCUGUCACAACUGUAAACAAACUUAUCCUAAAUGUGUUAAAACAUAUUCUUGGGUACUCUAUUUAUGUAUCUUUCAUGCCUUGAAAAUCUGAAGGUUAAUCCAAACUC: 0.416
CACGUCCCGCCGUUGGAGAAGGAGCGCGGGGGCGUUAGUGGACCCGCGCUCCCAUCCCCCACUCUCAGGGCUGGGGACUCGAAGGAGGCGGAGAGUAGACGGGGGCGACC: 0.302
GUAUUAGGUGUUAUAAGCAAUCUAGAGAUGAUUUAGCAAGUAUACAGGAGGAUGUGCCUAGGUUAUAUGCAAAUACUGUGCCAUUUUAUAUCAGGAACUUGAGCAUCUGC: 1.58
UACAACGAACCGAUCACCAGCUCCUUUUCAUUUUUAACUCUUUAAAAGGAUUCAAACGCAACUCAAAUCUGUGCUGGACUUUUGAAAAACCACAAUUCAGGACCAAAUUU: 0.781
CAGCUCUUGAAUUGCUCAUACAGAACAAUUCUGCUGGUGCUGGAGUCUGAAGAAUAUUUUCAUUUGCAUUUUAGUGGUUAGGGAGAGGAUAUAAGAUUAAUGGAAUGUAU: 10.4
UUGUCAACAGGAGGCUCAAGAUGUGAGAGGUGUGAGUCAGACGCCCGAGGAACUUACAGGAGGAGCCUAGGUCUGAAGUCAGUGUUAGGGAAGGGCCCAUAGCCACUUCC: 0.955
CCACCCCGAUUCUCACCACAAAGUUAGAAACCCUCCACUUUCUGUCCCUUGAACCAUAUCAGAAAAAGACCCAUUUCCUUGCUCUUUGGUAAUCACUUCUGUUUUUUUCU: 0.753
AGCACCCUGGAGAGUGCACAUGCCCCUUGGUCCUGGCAGGGCGCCAAGUCUGGCACCAUGUUGGCCUCUUCAGGCCUGCUAGUCACUGGAAAUUGAGGUCCAUGGGGGAA: 0.334
UCCUAACUAAAGAGAUGGGAGUUCACCUGAGGGCAAGAAGUACCCAGGAUGCCCAAACAGCCGCACAGGUGUCCUGUGCUUCCUGUGAGACUUCCUGGGGGAAAUAUACA: 0.409

Sample 3
Target: Centromere-binding protein 1, full length, N-terminal tag (CBF1, Saccharomyces cerevisiae, UniProt P17106, residues 1-351)
UniProt P17106, sequence (whole entry, looked up): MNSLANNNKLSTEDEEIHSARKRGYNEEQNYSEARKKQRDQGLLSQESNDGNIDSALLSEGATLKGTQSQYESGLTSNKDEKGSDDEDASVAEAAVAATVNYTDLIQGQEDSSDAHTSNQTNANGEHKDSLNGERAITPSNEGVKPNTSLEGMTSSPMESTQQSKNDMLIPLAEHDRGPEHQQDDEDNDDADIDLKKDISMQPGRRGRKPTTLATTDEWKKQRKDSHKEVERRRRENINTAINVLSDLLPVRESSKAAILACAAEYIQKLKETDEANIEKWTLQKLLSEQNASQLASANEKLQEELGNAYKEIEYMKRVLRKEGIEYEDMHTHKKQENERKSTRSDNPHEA
Technique: protein-binding microarray
Molecule type: double-stranded DNA, one strand shown
Medium: in vitro
Tested at: 0.8 µM
Setting: whole 60-bp probe, no competitor
Reading: higher = stronger binding
Endpoint: fluorescence intensity
All sequences stand within: … GTCTTGATTCGCTTGACGCTGCTG
CTAACTATGACGCGTCACGAATTGTGCTAGAGTTTC: 535 a.u.
GAATTATTCAAGTCTCATCATATGAAATTTCTTTAG: 480 a.u.
CTAGGCAACTAGAATCACACGTCAGCGTCATGCTTC: 570 a.u.
CTAATCAAAAAAAAGAACGCCACGTTTGAATTTTTC: 525 a.u.
CCTAACTACTATAATGTCGTGATATAGCTTCGTACA: 626 a.u.
GAAAGCCTTCTTTTCCACGTTTGTTTCAAAACTTAG: 563 a.u.
GAAGCTGATATATCTCGAGTCACCTTCAAAAATTAG: 548 a.u.
GAATGAATTCAGCATCACCTAGTTATTAATGACTAG: 493 a.u.

Further values, each from its own experiment
PhoQ, residues 284 288 289 292 302 303 SSCLAV
fold induction (PhoP, residues 12 14 15 18 19 NMSFL (Escherichia coli, UniProt P23836); Sort-seq, measured: YFP reporter; E. coli; PhoQ-PhoP variant library, added: 10 µM Mg2+; baseline: high Mg2+ state, higher = stronger signaling): 1.73

Repeated from above (sample 2):
CAGCUCUUGAAUUGCUCAUACAGAACAAUUCUGCUGGUGCUGGAGUCUGAAGAAUAUUUUCAUUUGCAUUUUAGUGGUUAGGGAGAGGAUAUAAGAUUAAUGGAAUGUAU: 10.4
UUGUCAACAGGAGGCUCAAGAUGUGAGAGGUGUGAGUCAGACGCCCGAGGAACUUACAGGAGGAGCCUAGGUCUGAAGUCAGUGUUAGGGAAGGGCCCAUAGCCACUUCC: 0.955
CCACCCCGAUUCUCACCACAAAGUUAGAAACCCUCCACUUUCUGUCCCUUGAACCAUAUCAGAAAAAGACCCAUUUCCUUGCUCUUUGGUAAUCACUUCUGUUUUUUUCU: 0.753
